Published values pooled from the literature.
A part holds a random share of what one study measured.

Study 1 — technique: protein binding microarray; molecule type: double-stranded DNA, one strand shown; matrix: in vitro; tested at: not given; reference: not given; direction: higher = stronger binding
Target: Histone acetyltransferase KAT6A, both winged helices, GST fusion (KAT6A, Homo sapiens, UniProt Q92794, residues 1-181)
Notes: 8-mer, flanks averaged, mean of 2 arrays, mostly near background
Residues (chain): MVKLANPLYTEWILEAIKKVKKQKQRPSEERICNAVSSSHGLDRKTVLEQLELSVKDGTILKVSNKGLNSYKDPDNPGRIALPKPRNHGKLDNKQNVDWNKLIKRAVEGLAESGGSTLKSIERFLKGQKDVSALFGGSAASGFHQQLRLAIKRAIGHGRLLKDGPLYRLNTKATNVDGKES
| Sequence | E-score |
| --- | --- |
| ACCAATTG | -0.0743 |
| ATGGGATC | -0.0272 |
| CGGAATAA | 0.149 |
| AATCATAC | 0.0735 |
| ACGAGGCT | -0.141 |
| GCACATGA | -0.00123 |
| GTCCATAA | -0.0847 |
| AAGCAGGA | -0.0791 |
| GCTCCAAC | 0.0496 |
| ATATAGGC | 0.0245 |
| AAATCAGG | -0.163 |
| TGCCAAAA | -0.0857 |
| CTAAGCAG | -0.108 |
| ACTGCATA | -0.0876 |
| AGGACATC | 0.037 |
| GCGGTATA | 0.209 |
| GGGGACAC | -0.234 |
| CGAAGCTA | 0.093 |
| TCAACACA | -0.213 |
| GGTCAAAA | -0.12 |
| CAGCGGAA | 0.198 |
| ATTAACAG | -0.0448 |
| AGGCCACG | -0.0326 |
| ATTTCCGG | 0.165 |
| AAAGCCAA | -0.165 |

Study 2 — technique: RNA Bind-n-Seq; molecule type: RNA; matrix: in vitro; tested at: not given; notes: RNA with constant flanks, ends assumed; reference: input RNA pool; direction: higher = stronger binding
Target: RING finger protein unkempt homolog, zinc fingers 1-6, GST-SBP tag (UNK, Homo sapiens, UniProt Q9C0B0, residues 30-357)
Residues (chain): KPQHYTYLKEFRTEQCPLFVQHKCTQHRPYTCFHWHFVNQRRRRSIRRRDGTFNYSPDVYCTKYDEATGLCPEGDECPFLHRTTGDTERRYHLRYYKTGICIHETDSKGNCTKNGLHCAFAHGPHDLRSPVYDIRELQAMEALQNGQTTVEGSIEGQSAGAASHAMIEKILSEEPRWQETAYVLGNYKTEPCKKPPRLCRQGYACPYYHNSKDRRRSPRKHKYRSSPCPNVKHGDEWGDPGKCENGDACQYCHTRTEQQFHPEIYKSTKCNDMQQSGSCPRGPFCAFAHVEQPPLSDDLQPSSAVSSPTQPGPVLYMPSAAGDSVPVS
| Sequence | bound/input enrichment [ratio] |
| --- | --- |
| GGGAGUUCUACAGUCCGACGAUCGACGAUGUCAUACAGCGCAAGAGGGAGCUGUGGCCACCUGAGAAGCUUCAAGAGACCGAGGAAUUCAAAGAGAGGUUACGGAAGCGGCGGGAGGAGAAGCUCCUUCGCGACGCCCAGCAGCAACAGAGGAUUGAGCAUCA | 0.133 |
| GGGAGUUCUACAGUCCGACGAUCGCUAUGAAAAGGGGAGAGCCUGCCAUCUACAGGCCACUAGAUCCAAAGCCAUUCCCAAAUUACCGAGCUAACUACAACUUCCGGGGCAUGUACAAUCAGAGGUAUCAUUGCCCAAUGCCCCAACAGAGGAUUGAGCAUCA | 0.225 |
| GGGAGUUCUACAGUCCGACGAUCAUCUAUGCUAACCUCUCUGAUGAGAAGGCUUUCGUGUUUUCAGUUGCCUUGGCAGAAAUAAACCGAAAAAUUAUCAAUCAAAGACUUAUUCUCUGAUAUUUGUCUUCAAACUCUGUUGGUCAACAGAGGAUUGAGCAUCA | 0.126 |
| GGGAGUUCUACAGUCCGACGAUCAAAAACCUGGAGAAAAUUAGCAGACAGUCUAGUGUGCUCAUGGAUAACAUGAAACACCUAUCCGAGCUAAAUAAAUUAAUAAUGAAAUCACAGCAGGAAUCUUGGGAUUUAGAGGAAAAACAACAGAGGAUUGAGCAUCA | 1.69 |
| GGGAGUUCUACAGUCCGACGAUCGAUGGAUUUUACUUUUCAACAACAUAUGAUUUGACCCAUACUUUGCAGCGGCUAUCCAACACCCGUCCUGAAUUCCAAGAAAUGAGUCUCUUGGAAAGGGCAGAUCAGCGGUUUGUAUGGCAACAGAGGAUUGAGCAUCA | 0.203 |
| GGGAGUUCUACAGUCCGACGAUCGUGGCUCGCUAUGCUGCCGAGAACAACAGGGUCUUCACUUUGAACCUGUCUGCACCGUUCAUCCGCCAGUUCUUCAAGGAAGCCUUGAUGGACGUCAUGCCUUAUGUUGAUAUCCUCUUUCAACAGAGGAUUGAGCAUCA | 0.123 |
| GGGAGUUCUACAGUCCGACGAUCAAGUCUUUGGGAAGCAGUGAUUUGAAAUUUUGAGGUGACAGGCUUUUAAGGUAUAUUUUGCCGCAUGGGUUGGCAAUCUACAGCAUGUGGGCCAAAUCCAGCCUGCUGCCUGUUUUUAUACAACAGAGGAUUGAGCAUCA | 0.377 |
| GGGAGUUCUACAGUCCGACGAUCGUCAUCGAUGCAGGAGUCUGCAGGAGGCUUGUGGAACUUCUGAUGCAUAAUGACUAUAAAGCCGUUUCUCCUGCUUUGCGGGCUGUGGGAAACAUUGUCACAGGGGAUGAUAUUCAGACACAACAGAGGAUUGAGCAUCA | 0.185 |
| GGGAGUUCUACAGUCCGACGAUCGAGGUCCUGAGGCAGGAAGACAAAGCUGAAGCUAUGUCUGGCCACAUUGAUCAGUUUCUGACCGCAACAUUCAUGCAGCUAAGACUCAUCUACAGCACACACAUGGCAGAUGAGAAGUUGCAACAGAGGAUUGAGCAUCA | 0.213 |
| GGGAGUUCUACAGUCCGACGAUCUCUCUAAGAGGAAGACCUUCAAAUUUGGUUCAUACGACAACAGUUAUUAAGAGAGAUUUCCCGUAAUCUUCAGAUGUGAGGUUUUUUUUCUGCCAACAAAAGUCACAUUCAAAUUGUAUUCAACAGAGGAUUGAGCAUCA | 0.238 |
| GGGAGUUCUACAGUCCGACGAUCAAAAAACAACAGUUUUGUUGGCAUGUGAAGCUCCAGUUUCCUCAAAGUCAAGCUGAGUACACCGAAAAAAGAGUACCAGAUGAUAAAACUAUUAAUGAAAUCCUAAAACCUUACAUUGAUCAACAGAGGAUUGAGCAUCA | 0.0964 |

Study 3 — technique: universal PBM; molecule type: double-stranded DNA, one strand shown; matrix: in vitro; tested at: not given; direction: higher = stronger binding
Target: Sal-like protein 4, full length isoform B (SALL4, Homo sapiens, UniProt Q9UJQ4-2, residues 1-616)
Notes: 8-mer, flanks averaged, mean of replicates
| Sequence | E-score |
| --- | --- |
| GGAAGCAA | -0.0407 |
| AAACCTAT | 0.218 |
| GACAAGCA | -0.0745 |
| AAGTTTCT | 0.123 |
| CAGAAGGG | -0.133 |
| CGCCCTGC | -0.28 |
| AGAGATGG | 0.0682 |
| CCGTGAAA | 0.00278 |
| AAGAGCAA | -0.00046 |
| ACGATGAT | 0.1 |
| AAATCCAC | 0.037 |
| ACTATCAC | 0.154 |
| ACCCACTA | -0.0214 |
| AGAGGTCG | -0.0956 |
| CGCTACAC | -0.0416 |
| ACACACAC | -0.0109 |
| ACCCCGAA | -0.0667 |
| AGCTTGCG | -0.201 |
| AAGGGTGT | 0.00113 |
| ATCTAGGA | 0.11 |
| ATAAACAC | 0.231 |
| GAACCGGA | -0.195 |
| ACTACGTC | 0.0318 |
| CACGTTGA | -0.102 |
| CAAGGCGA | -0.193 |

Study 4 — technique: RNA Bind-n-Seq; molecule type: RNA; matrix: in vitro; tested at: 365 nM; reference: no-protein control; direction: higher = stronger binding
Target: RNA binding protein fox-1 homolog 2, RRM domain, GST-SBP tag (RBFOX2, Homo sapiens, UniProt O43251-10, residues 100-194)
Notes: natural RNA segment, single round, ends assumed
Residues (chain): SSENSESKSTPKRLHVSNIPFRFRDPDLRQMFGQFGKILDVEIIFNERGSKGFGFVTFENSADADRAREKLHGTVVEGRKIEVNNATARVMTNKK
| Sequence | RBNS enrichment (R) |
| --- | --- |
| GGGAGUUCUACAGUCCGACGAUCGGAAAAUGAACCUCAGCCCAUUAGGCAGGAAAAGUUGAUAUUUAAUAAACAAGGAAAGAGUGAACUGGACCCCAAAUGGUACUCUUGUCAGCUGUUUCUGUCCUCAGAAGUGGAAUUCUCGGGUGCCAA | 0.336 |
| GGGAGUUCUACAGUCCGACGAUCGUGAACUCUGUGGAGGGAGGCCCAGAAUGGGUGCUUUCACCAAGAAUUUGUCUGUGUACAACUCUAGAUGGAGUGGGCCAGCAGUAGCUGCCAGUCUUUCUCCCCUGCAGUGGAAUUCUCGGGUGCCAA | 0.354 |
| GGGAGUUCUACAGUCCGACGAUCAGCUCACUCCACAAGUAAAUGGAUUUAAUCAAAGGUCACCUAUCUGCUUUUGAUUGUCUAGGUCACAGUAAUCCCUAGGAUUUUUCACCGCUUAUUCUUUUUGUCUUUUUUGGAAUUCUCGGGUGCCAA | 0.682 |
| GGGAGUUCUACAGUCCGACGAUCUUACUGCAGUGCAACACUUGCACUUUAAUUUUCCUCCAACUGUCUAAAAUUAGAGCAAAUACAUUGGCAAUACAGCUGCUUUUGCUCUGAGCUACAAUCAUGGCUUUUCAUGGAAUUCUCGGGUGCCAA | 0.292 |
| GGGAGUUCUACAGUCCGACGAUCCAAACUGGUAUCUCUUGCUGAUGGACAGAGGGACACAGGUAGAGCAGCUAAGCUGAAAGUGCCCAGCAGGUGCAAAGGGGAAAAAGAACAAGGUUUGAGGAGGAAGUAGUUGGAAUUCUCGGGUGCCAA | 0.875 |
| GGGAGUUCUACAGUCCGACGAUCGUGCUGUCUUAUUUUUGCUGUCACAAUUUGUAAACUCAGUGUGACUUCUAUAUGAGUGUUUUAACCCUCAGCAUUCUGUGGUCAGGAAGAUAAAAGCAUCUGCAGGUCCCUGGAAUUCUCGGGUGCCAA | 0.315 |
| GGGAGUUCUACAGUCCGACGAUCCUGUGCCAUACUGAGGGGUGGUUGUGUUUGCAGGAGGUAGCCACUCUAGAGGCCGCGGCAGAAGGAGCUCUGUGAGUCCAAGGCCAGCCUGUUCUACAUAGUGAGUUCCAUGGAAUUCUCGGGUGCCAA | 2.03 |
| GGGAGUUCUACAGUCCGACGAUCAGGAUUUUCCUUAGGACAGGUGUGACCUUCUGGUCCCUCUGUCCCAUUGCCCUCUCGUAUUCCAUUUAAAAAAGUCAUUCAUGAUCCUUUCCACCCGCUCUCUGUAUUUUUGGAAUUCUCGGGUGCCAA | 0.576 |
| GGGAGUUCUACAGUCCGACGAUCAAACCUCUGUUUCUAUAGAUUUAUUUUUAUACAUGUUUAAUUAUUGAAUCAUAAAAUGGGGACAUAUCAUCAAAUCCAAAGUGGUAACAGUGCUAAAUAAGCAUGUAUGAUGGAAUUCUCGGGUGCCAA | 0.852 |
| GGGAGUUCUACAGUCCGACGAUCUUGGCCACUGAGCCCUGUCUCCCUUCUUCUUCUGCACAGGCUGGGGCUGCGGGCCAGUGCCUGCGCAUGUUUGUGCCUCUCCCCUCUCCUUGGGCAGGCCCUGGGUAGGAUGGAAUUCUCGGGUGCCAA | 1.92 |
| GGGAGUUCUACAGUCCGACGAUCCAGAUUUUUUACAGCUGCCUGCAGUACUUUACCUCCUAUCAGAAGUUUCUCAGCUCCCAAGGCUCUGAGCAAAUGUGGCUCCUGGGGGUUCUUUCUUCCUCUGCUGAAGGUGGAAUUCUCGGGUGCCAA | 0.287 |
| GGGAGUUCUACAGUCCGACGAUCAGAAUUUGGGGCUCUGACUGAUCAAAACCUGUGUAUCUGUGUCAAGUUUUAAGACCCCUGAAACAGCUAAAACAGGUUUCCAAAGUGUAAUCACUGGAUUUCAAAACCAUUGGAAUUCUCGGGUGCCAA | 0.242 |

Some of these lines once more (study 1):
| Sequence | E-score |
| --- | --- |
| ATATAGGC | 0.0245 |
| AAATCAGG | -0.163 |
| TGCCAAAA | -0.0857 |
| CTAAGCAG | -0.108 |
| ACTGCATA | -0.0876 |
| AGGACATC | 0.037 |
| GCGGTATA | 0.209 |
| GGGGACAC | -0.234 |
| CGAAGCTA | 0.093 |
| TCAACACA | -0.213 |
